Measured values collected from several papers.
Compare with care: the assays were run in different laboratories. ± gives the spread as reported.

Nc1ccn([C@@H]2O[C@H](CO)[C@@H](O)C2(F)F)c(=O)n1 — IC50 (MIA PaCa-2 with ENG siRNA; 48 h, together with: ENG siRNA 1 for 24 h): 0.0157 µM
CC(C)=CCOc1ccc2c(C)cc(=O)oc2c1C — IC50 (PAM212; cell growth; 4 to 5 days, together with: UVA 1.28 J/cm^2): 10 µM
C[C@]1([N+](=O)[O-])C(=O)c2ccccc2O[C@@H]1CC(=O)Nc1ccccc1 — IC50 (DU-145; cell growth or viability, SRB; 96 h): 20.3 µM
N#Cc1cnc2cnc(NCc3cccnc3)cc2c1Nc1ccc(F)c(Cl)c1 — IC50 (HeLa expressing Ub(G76V)-GFP; Ub(G76V)-GFP degradation, inhibitor, cycloheximide chase): ~10 µM
CC(=O)N1N=C(c2ccc(NC(=O)CN3CCN(c4ccc(Cl)cc4)CC3)cc2)CC1c1ccc(C)cc1 (centres unmarked) — IC50 (HCT-116, PC-3, MCF7, MDA-MB-231 average; MTT): 60 µM
C=CCOc1ccc2c(C)c(Br)c(=O)oc2c1C — IC50 (PAM212; cell growth; 4 to 5 days, together with: UVA 1.28 J/cm^2): 5 µM
CNC(=O)c1cc(Oc2ccc(NC(=O)Nc3ccc(Cl)c(C(F)(F)F)c3)cc2)ccn1 — IC50 (MHCC97H; cell proliferation, MTT; 48 h, miR-140-3p): 0.18 ± 0.05 µM
CNC(=O)c1cc(Oc2ccc(NC(=O)Nc3ccc(Cl)c(C(F)(F)F)c3)cc2)ccn1 — IC50 (TF-1 expressing FLT3-ITD; ERK activity inhibition, ex vivo, inhibitory Emax model; plasma; adjusted for N-oxide metabolite potency): 0.0857 mg/L
C=CCc1ccc(O)c(-c2ccc(O)c(CC=C)c2)c1 — IC50 (UACC-903; cell proliferation, MTS; 24 h, together with: 10 µM BLM): 7.94 µM
COc1ccccc1CNC1=NS(=O)(=O)c2cc(F)ccc2N1 — IC50 (MDA-MB-468; cell growth or viability, MTS; 72 h): 15.7 µM
C[C@]1([N+](=O)[O-])C(=O)c2ccccc2O[C@@H]1CC(=O)NCc1ccccc1 — IC50 (DU-145; cell growth or viability, SRB; 96 h): 19.5 µM
O=C(CN1CCN(c2ccc(Cl)cc2)CC1)Nc1ccc(C(=O)C=Cc2ccccc2)cc1 — IC50 (HCT-116, PC-3, MCF7, MDA-MB-231 average; MTT): 36 µM
Cc1ccc2nc(Cl)c(C=C3C(=O)Nc4ccccc43)cc2c1 — IC50 (A2780; cell growth or viability, MTT; 72 h): > 100 µM
C#Cc1cc(-c2cc(Nc3nc(N[C@@H](C)c4ccc(F)cn4)ncc3Cl)n[nH]2)ccc1C=O — IC50 (KM12-Luc; cell growth or viability, ATP luminescence; 72 h): 0.166 µM
C#CCOc1ccc(/C=C/C(=O)CC(=O)/C=C/c2ccc(OCC#C)c(OC)c2)cc1OC — IC50 (mouse Peritoneal macrophage; IL-6 release, inhibitor, ELISA; LPS-stimulated): 2.23 µM
N=C(N)NCCC[C@H](NC(=O)[C@H](Cc1c[nH]c2ccccc12)NC(=O)[C@H](CCC(N)=O)NC(=O)[C@H](Cc1c[nH]c2ccccc12)NC(=O)[C@H](CCCNC(=N)N)NC(=O)[C@H](Cc1c[nH]c2ccccc12)NC(=O)[C@H](CCC(N)=O)NC(=O)[C@H](Cc1c[nH]c2ccccc12)NC(=O)[C@H](CCCNC(=N)N)NC(=O)[C@@H](N)CCCNC(=N)N)C(N)=O — IC50 (primary fibroblasts; cell viability, MTT; 2 h): > 121 µM
Cc1ncn(-c2ccc3cc2OC/C=C\CNc2nc(nc4c2CC[C@H]4c2ccc(Cl)cc2F)N3)n1 — IC50 (H4-APPsw; amyloid-beta 1-42 secretion, inhibitor, HTRF immunoassay, refers to: amyloid-beta 1-42; overnight): 0.0035 µM
C[C@]1([N+](=O)[O-])C(=O)c2cc(C(F)(F)F)ccc2O[C@@H]1CC(=O)NC12CC3CC(CC(C3)C1)C2 — IC50 (DU-145; cell growth or viability, SRB; 96 h): 1.63 µM
O=C1C(=Cc2ccccc2)CN(C(=O)C=CC(=O)N2CC(=Cc3ccccc3)C(=O)C(=Cc3ccccc3)C2)CC1=Cc1ccccc1 — IC50 (MOLT-4/C8 and CEM cells; cytotoxicity): 6.08 µM
N=C(N)c1ccc(C(=O)N2CCN(C(=O)c3cc(CN4CCN(C(=N)N)CC4)cc([N+](=O)[O-])c3)CC2)cc1 — IC50 (mouse F9 cells; CHRM4 and SCN3A gene activation, activator, qRT-PCR, refers to: CHRM4 and SCN3A mRNA; 24 h): 8.45 µM
CC(C)c1cc(-c2n[nH]c(=O)n2-c2ccc3c(ccn3C)c2)c(O)cc1O — IC50 (human astrocytes; C3 secretion, ELISA; together with: stimulated PBMC supernatant): 0.0298 µM
COc1ccc(C=CC(=O)c2ccc(NC(=O)CN3CCN(c4ccc(Cl)cc4)CC3)cc2)cc1 — IC50 (HCT-116, PC-3, MCF7, MDA-MB-231 average; MTT): 44 µM
C[C@]1([N+](=O)[O-])C(=O)c2ccccc2O[C@@H]1CC(=O)NNc1nc2ccccc2s1 — IC50 (DU-145; cell growth or viability, SRB; 96 h): 29.7 µM
CC[n+]1c(/C=C/N(C)c2ccccc2)n(-c2ccccc2)c2ccc(-c3nc4ccccc4s3)cc21 — IC50 (HeLa expressing Ub(G76V)-GFP; Ub(G76V)-GFP degradation, inhibitor, cycloheximide chase): 10 ± 2 µM
O=C1Nc2ccccc2C1=Cc1cc2cc(Br)ccc2nc1Cl — IC50 (A2780; cell growth or viability, MTT; 72 h): > 100 µM
CCNC(=O)C[C@H]1Oc2ccccc2C(=O)[C@]1(C)[N+](=O)[O-] — IC50 (DU-145; cell growth or viability, SRB; 96 h): 18.7 µM
COc1cc([C@@H]2c3cc4c(cc3[C@@H](O[C@@H]3O[C@@H]5CO[C@@H](C)O[C@H]5[C@H](O)[C@H]3O)[C@H]3COC(=O)[C@H]23)OCO4)cc(OC)c1O — IC50 (human iPSC-derived sensory neurons; cell viability, resazurin reduction; 48 h): 3.2 µM
S=C([S][Au-][P+](CCCCCC[P+]([Au-][S]C(=S)n1ncc2ccccc21)(c1ccccc1)c1ccccc1)(c1ccccc1)c1ccccc1)n1ncc2ccccc21 — IC50 (PHA-P stimulated human PBMC; cell growth, MTT; 3 d): 30.2 ± 11.1 µM
COc1cc(-c2nc3ccc(C(=O)Nc4ccc(C)cc4)cc3[nH]2)cc(OC)c1OC — IC50 (MRC5; cell growth or viability, MTT; 72 h): 15 µM
CC(=O)Nc1ccc(O)cc1 — IC50 (ReNcell VM, differentiated astrocytic; cell viability, live/dead 3D alginate microarray; 24 h exposure plus 48 h, 6 days differentiation): 14100 µM
O=S1(=O)N=C(NCCc2ccccc2)Nc2ccc(Br)cc21 — IC50 (MDA-MB-468; cell growth or viability, MTS; 72 h): 18.6 µM
Cc1cc(=O)oc2c(C)c(O)ccc12 — IC50 (PAM212; cell growth; 4 to 5 days, together with: UVA 1.28 J/cm^2): 100 µM
C[C@@H]1C[C@H]2[C@@H]3CCC4=CC(=O)C=C[C@]4(C)[C@@]3(F)[C@@H](O)C[C@]2(C)[C@@]1(O)C(=O)CO — IC50 (EAE mouse splenocytes at disease peak; cellular metabolism; 120 h; relative to: untreated EAE splenocytes): 0.00684 ± 0.00418 µM
Nc1ncnc2c1ncn2[C@@H]1O[C@H](CO)[C@@H](O)[C@H](F)[C@H]1O — IC50 (FM3A; cell growth or viability): > 200 µM
COc1ccc2c(C)cc(=O)oc2c1I — IC50 (PAM212; cell growth; 4 to 5 days, together with: UVA 1.28 J/cm^2): 70 µM
COc1ccc(CNC(=O)[C@@H]2CN(C(=O)CCl)CCN2S(=O)(=O)c2ccc(OC)cc2)cc1 — IC50 (22Rv1; mRNA level, QuantiGene, refers to: AR-V7 mRNA; 6 h): > 50 µM
CC(=O)N1N=C(c2ccc(NC(=O)CN3CCN(c4ccc(Cl)cc4)CC3)cc2)CC1c1ccc(Cl)cc1Cl (centres unmarked) — IC50 (HCT-116, PC-3, MCF7, MDA-MB-231 average; MTT): 70 µM
CC1(C)C2CC[C@]1(C)C(=O)/C2=C/c1ccco1 — IC50 (GES1; cell growth or viability, SRB; 72 h): 185 µM
Cc1c(C(=O)/C=C/c2cc3ccccc3o2)nnn1-c1c(Cl)cc(Cl)cc1Cl — IC50 (THLE-2; cell growth or viability, MTT): 45.8 µM
COc1cc(C2CC(c3ccc(NC(=O)CN4CCN(c5ccc(Cl)cc5)CC4)cc3)=NN2C(C)=O)cc(OC)c1OC (centres unmarked) — IC50 (HCT-116, PC-3, MCF7, MDA-MB-231 average; MTT): 43 µM
CCCCc1nc2cc(/C=C/C(=O)NO)ccc2n1CCN(CC)CC — IC50 (primary AML blasts; cell proliferation, CellTiter-Glo; 48 h, highest FAB-type mean): 1.5 µM
COc1cc(/C=C/C(O)=C/C(=O)/C=C/c2ccc(OC(=O)CCC(=O)OC3CCCC3)c(OC)c2)ccc1O — IC50 (mouse Peritoneal macrophage; IL-6 release, inhibitor, ELISA; LPS-stimulated): 3.22 µM
CC1(C)C2CC[C@@]1(C)C(=O)/C2=C/c1cc2ccccc2o1 — IC50 (GES1; cell growth or viability, SRB; 72 h): 278 µM
O=S1(=O)N=C(NCCc2cccc(C(F)(F)F)c2)Nc2ccc(F)cc21 — IC50 (MDA-MB-468; cell growth or viability, MTS; 72 h): 25.2 µM
C[C@]1([N+](=O)[O-])C(=O)c2ccccc2O[C@@H]1CC(N)=O — IC50 (DU-145; cell growth or viability, SRB; 96 h): 46.2 µM
Oc1ccc(/C=C/c2cc(O)cc(O)c2)cc1 — IC50 (MDA-MB-468; cell growth or viability, MTT; 96 h): 59 µM
Nc1nc2[nH]c(CCCc3ccc(C(=O)NCCCC(=O)O)s3)cc2c(=O)[nH]1 — IC50 (KB cells; cell growth; together with: folic acid 200 nM): > 1 µM
COc1cc(NC(=O)c2cc(-c3c[nH]c4ccccc34)n[nH]2)cc(OC)c1OC — IC50 (Huh-7, HepG2, Mahlavu, SNU-475; cell growth, SRB; range over cell lines): < 5 µM
COc1ccc(C[C@H](N)C(=O)N[C@H]2[C@@H](O)[C@H](n3cnc4c(N(C)C)ncnc43)O[C@@H]2CO)cc1 — IC50 (3T3 cells; cytotoxicity; solid sample retest): 3.35 ± 0.12 µM
CNC(=O)c1cc(Oc2ccc(NC(=O)Nc3ccc(Cl)c(C(F)(F)F)c3)cc2)ccn1 — IC50 (MHCC97H cells, NICD overexpressing; cell viability, MTT; concentration not given, together with: pralatrexate 2): 4.55 µM
COc1cccc(CNC2=NS(=O)(=O)c3cc(Br)ccc3N2)c1 — IC50 (MDA-MB-468; cell growth or viability, MTS; 72 h): > 50 µM
CO[C@H]1C[C@@H]2CC[C@@H](C)[C@@](O)(O2)C(=O)C(=O)N2CCCC[C@H]2C(=O)O[C@H]([C@H](C)C[C@@H]2CC[C@@H](O)[C@H](OC)C2)CC(=O)[C@H](C)/C=C(\C)[C@@H](O)[C@@H](OC)C(=O)[C@H](C)C[C@H](C)/C=C/C=C/C=C/1C — IC50 (human astrocytes; C3 secretion, ELISA; together with: stimulated PBMC supernatant): 0.16 µM
CC(C)Cc1ccc(C(C)C(=O)O)cc1 (centres unmarked) — IC50 (H9 hESC-derived AM microtissues; viability; 3 d; relative to: vehicle): 202 µM

Excerpt of the above:
CC(C)c1cc(-c2n[nH]c(=O)n2-c2ccc3c(ccn3C)c2)c(O)cc1O — IC50 (human astrocytes; C3 secretion, ELISA; together with: stimulated PBMC supernatant): 0.0298 µM
CC1(C)C2CC[C@@]1(C)C(=O)/C2=C/c1cc2ccccc2o1 — IC50 (GES1; cell growth or viability, SRB; 72 h): 278 µM
O=S1(=O)N=C(NCCc2ccccc2)Nc2ccc(Br)cc21 — IC50 (MDA-MB-468; cell growth or viability, MTS; 72 h): 18.6 µM
CC1(C)C2CC[C@]1(C)C(=O)/C2=C/c1ccco1 — IC50 (GES1; cell growth or viability, SRB; 72 h): 185 µM
